Measurements from different studies.
Lines come from different studies, so protocols differ. ± marks the error that the study gave.

SMILES	tested on	test	system	setting	how to read	measurement	result
COc1cc(CNC(=O)C[C@H](C)CCC=C(C)C)ccc1OCc1cn(-c2cccc([N+](=O)[O-])c2)nn1	HCC 2998	SRB		10 µM, 48 h		growth percent	91.4%
CCNC(=O)OCc1c(COC(=O)NCC)c(-c2ccc(OC)cc2)n2c1Cc1ccccc1-2			BALB/c nude mice	concentration not given, day 10	relative to: control mice	decrease in RBC and haemoglobin	~20%
CC(C)C[C@@H]1NC(=O)[C@@H](Cc2ccccc2)NC(=O)[C@H](CCN)NC(=O)[C@@H](NC(=O)[C@H](CN)NC(=O)[C@@H](NC(=O)C(CCN)C2CCCCC2)[C@@H](C)O)CCNC(=O)[C@H]([C@@H](C)O)NC(=O)[C@H](CCN)NC(=O)[C@H](CCN)NC1=O (stereo partly drawn)			CD-1 mouse male, kidney	subcutaneous, 17.2 mg/kg, 4 h		tissue concentration	309000 ng/g
CCCC[C@H](NC(=O)[C@H](CC(C)C)N(C)C(=O)CNC(=O)[C@@H](NC(=O)[C@H](Cc1ccccc1)NC(=O)[C@H](CCCCN)NC(=O)[C@@H](N)CC(=O)O)C(C)C)C(N)=O			anaesthetised Sinclair minipig	sublingual, 5 mg/kg, lyophilised tablet	relative to: baseline	mean arterial pressure change	-1.25 ± 3.65%
O=C1c2sc(-c3ccc(N4CCC(CO)CC4)nc3F)nc2CCN1c1cccnc1		PET imaging	rhesus monkey, whole brain	intravenous bolus		time to peak uptake	4.5 min
CC(=O)N[C@H](CC(=O)O)C(=O)N[C@H](Cc1c[nH]c2ccccc12)C(=O)N[C@H](Cc1ccccc1)C(=O)N[C@H](CCCCN)C(=O)N[C@H](C)C(=O)N[C@H](Cc1ccccc1)C(=O)N[C@H](Cc1ccc(O)cc1)C(=O)N[C@H](CC(=O)O)C(=O)N[C@H](CCCCN)C(=O)N[C@@H](C(=O)N[C@H](C)C(=O)N[C@H](CCC(=O)O)C(=O)N[C@H](CCCCN)C(=O)N[C@H](Cc1ccccc1)C(=O)N[C@H](CCCCN)C(=O)N[C@H](CCC(=O)O)C(=O)N[C@H](C)C(=O)N[C@H](Cc1ccccc1)C(N)=O)C(C)C			statin-treated high-risk CHD men, plasma	oral, 100 mg daily, day 13, 0 to 8 h, mean, undetectable set to 0		AUC(0-t)	6.94 ng·h/mL
COCCOCCOCCOCCC(=O)NCc1cc(CNC(=O)CCOCCOCCOCCOC)cc(-c2cc3cc4nc(c(-c5ccc(CCC(=O)O)cc5)c5[nH]c(cc6nc(c(OC)c2[nH]3)CC6(C)C)cc5-c2cc(CNC(=O)CCOCCOCCOCCOC)cc(CNC(=O)CCOCCOCCOCCOC)c2)CC4(C)C)c1			DMF	room temperature		internal conversion yield	0.41
COc1cc(N(C)CCN(C)C)c(NC(=O)CCSCC(NC(C)=O)C(=O)O)cc1Nc1nccc(-c2cn(C3CC3)c3ccccc23)n1 (stereo not drawn)		radio-HPLC	human, urine	dose not given, 0 to 48 h, sample holds 2.97% dose	relative to: sample radioactivity	share of radioactivity	0.39%
Cc1[nH]nc2c1N=C(c1ccccc1Cl)c1cnc(N3CCOCC3)cc1N2		item: total radioactivity	human male, plasma	oral, 10 mg		apparent clearance (CL/F)	4.08 L/h
O=C(CCc1ccc(CNC(C(=O)O)C2CCCCC2)cn1)NO (stereo not drawn)			healthy male humans, plasma	oral, 5 mg, single dose, geometric mean		AUC(0-t)	11.7 ng·h/mL
NC[C@@H](C(=O)Nc1ccc(-c2cn[nH]c2)cc1)c1ccccc1		OECD 405 eye irritation	New Zealand White rabbit, eye	topical, 0.1%, 73 h (day 4), scale 0 to 2	direction not given	iris score	0
N=C(N)NCCC[C@@H]1NC(=O)[C@H](Cc2c[nH]c3ccccc23)NC(=O)[C@@H](CC2CCCCC2)NC(=O)[C@@H]2CCCN2C(=O)[C@@H](NC(=O)CCc2ccccc2)CCCNC1=O		two-compartment model	C57BL/6J mouse, plasma plasma	intravenous, 1 mg/kg single dose		K21	5.82 h⁻¹
Cn1c(=O)c2c(nc(OC3CCN(C(=O)C4CC4)CC3)n2Cc2ccccc2Cl)n(C)c1=O		metabolic stability	rat, liver microsomes			half-life	21 min
C[N+](C)(C)CC(CC(=O)[O-])OC(=O)CCC(=O)Nc1ccn([C@@H]2O[C@H](CO)[C@@H](O)C2(F)F)c(=O)n1 (stereo partly drawn)			THU-treated rat plasma	125.00 ng/mL, 1 h, 20 °C, bench-top stability, mid QC		measured concentration	114 ± 1.3 ng/mL
COC(=O)c1ccc(-c2cn(Cc3cc(Cl)ccc3O[11CH3])nn2)cc1		PET, Logan plot, t*=40 min	rhesus monkey, brain NAc	dose not given		distribution volume	0.625 mL/cm³
CCCCCCCCCCCCCCCC(=O)N[C@@H](CCCCN)C(=O)N[C@@H](CCCCN)C(=O)N[C@@H](CO)C(=O)N[C@@H](CCCNC(=N)N)C(=O)N[C@@H](C)C(=O)N[C@@H](CC(C)C)C(=O)N[C@@H](Cc1ccccc1)C(N)=O			cynomolgus monkey, male	3 mg/kg, day 5		activated partial thromboplastin time	28.1 ± 1.4 s
NCCCC[C@H](NC(=O)[C@@H]1CCCN1C(=O)[C@@H]1CSSC[C@H](NC(=O)CNC(=O)CNC(=O)CN)C(=O)N[C@@H](Cc2ccc(O)cc2)C(=O)N[C@@H](Cc2ccccc2)C(=O)N[C@@H](CCC(N)=O)C(=O)N[C@@H](CC(N)=O)C(=O)N1)C(=O)NCC(N)=O			male Sprague Dawley rats	iv, single dose		LOAEL (paleness, lethargy)	0.15 mg/kg
CC(C)c1cnc(-c2cc(Cl)ccc2F)cc1Nc1ccncc1C(=O)NC(CO)CO		monotherapy, item: nausea	human patients	oral, dose not given, grade 1, phase I A		patients with treatment-related adverse event	9.5%
CC(C)(O)c1ncc([S@](N)(=O)=NC(=O)Nc2c3c(cc4c2CCC4)CCC3)s1			healthy human volunteers, plasma	oral, 100 mg once daily, day 14, spray-dried dispersion		dose-normalised AUC(0-tau)	967 ng·h/mL/mg
COCC1CN(C2CCN(c3cc(OC)c(Nc4ncc(Br)c(Nc5ccc6c(c5P(C)(C)=O)OCCO6)n4)cc3C)CC2)C1			human patients	oral, 10 to 240 mg once daily		treatment-related γ-GTT increased, all grades	11.1%
CCCC[C@@H]1NC(=O)[C@@H](NC(=O)[C@H](CCC(=O)O)NC(=O)CNC(=O)CN2CCN(CC(=O)O)CCN(CC(=O)O)CCN(CC(=O)O)CC2)CCCCNC(=O)C[C@@H](C(N)=O)NC(=O)[C@H](C(C)C)NC(=O)[C@@H]2CCCN2C(=O)[C@H](CCCNC(=N)N)NC(=O)CNC(=O)[C@H](Cc2c[nH]c3ccccc23)NC(=O)[C@H](CCCNC(=N)N)NC(=O)[C@@H](Cc2ccccc2)NC(=O)[C@H](Cc2c[nH]cn2)NC(=O)[C@H](CCC(=O)O)NC1=O [gallium-67 labelled]			C57 mice with B16/F1 melanoma, spleen	intravenous, 0.037 MBq, 0.5 h		tissue uptake	0.41 ± 0.22 %ID/g
COC(=O)C(c1ccccc1Cl)N1CCC(SCC(=O)c2cccc(OC)c2)C(=CC(=O)O)C1 (mixture of isomers)		HPLC-MS/MS	feline citrate plasma	100 ng/mL, 6 h, 4 °C, storage stability		deviation from nominal	3%
CC[C@@H](C)N([11CH3])C(=O)c1nc(-c2ccccc2)c2ccccc2n1			male rhesus monkey, plasma	intravenous, baseline		time to 50% parent radioligand	26 min
Cn1c(=O)oc2ccc(-c3ccc(CC(C#N)NC(=O)C4CNCCCO4)c(F)c3)cc21 (stereo not drawn)			human, plasma	40 mg once daily, steady state, geometric mean		trough concentration	102 ng/mL
[11CH3]c1ccc2nc(C3CCC3)n(-c3ccc4[nH]ncc4c3)c2n1		extrapolated from mouse biodistribution	human male, drain			absorbed dose	1 µSv/MBq
CCCC(CCC)NC(=O)c1ccc(OS(=O)(=O)O)c(OC)c1		LC-MS extracted ion chromatogram	Sprague-Dawley rat, male and female, pooled plasma	oral, 200 mg/kg, 1 h		peak area	1.14e+06 cps
CC(C)C[C@@H](NC(=O)[C@H](NC(=O)[C@H]1CCCN1)[C@H](C)O)C(=O)N[C@H](Cc1c[nH]cn1)C(=O)N[C@@H](C(=O)N[C@H](Cc1c[nH]cn1)C(=O)N[C@H](CC(N)=O)C(=O)N[C@H](CCCNC(=N)N)C(=O)N[C@H](CCCNC(=N)N)C(=O)N[C@H](CCCNC(=N)N)C(=O)N[C@H](CCCNC(=N)N)C(=O)N[C@H](CCCNC(=N)N)C(N)=O)[C@H](C)O			beagle dog, plasma	intravenous, 3 mg/kg, single dose		Vd	0.659 L/kg
COC[C@@H](CC(C)C)NC(=O)c1ccc(C)c(CO)c1		LC-MS	Sprague-Dawley rat, both sexes, rat liver microsomes	10 µM of parent drug, 10 min, pH 7.4, together with: NADPH	relative to: parent drug at time zero	metabolite peak area	1%
CCc1cc(Nc2nc(-c3ccc(-n4cnc(C)c4)c(F)c3)cs2)c(C)cc1C			human, both sexes, plasma	oral, 400 mg once daily, day 14, multiple dose, geometric mean		apparent terminal volume (Vz/F)	413000 mL
COCCOCCOCCOc1ccc(/C=C/c2c(I)c(C)c3n2[B-](F)(F)[N+]2=C(C)C(I)=C(C)C2=C3c2cc(OC)cc(OC)c2)cc1			dichloromethane			Stokes shift	384 cm⁻¹
